Literature values as cited in several papers.
Compare with care: the assays were run in different laboratories. ± gives the spread as reported.
lasR: Transcriptional activator protein LasR (lasR, Pseudomonas aeruginosa, UniProt P25084)

SMILES	target	assay	system	setting	how to read	quantity	value
OC[C@@]12C[C@@H]1[C@@H](n1cnc3c(N[C@H](C4CCC4)C4CC4)nc(Cl)nc31)[C@H](O)[C@@H]2O	ADORA2A (Homo sapiens, UniProt P29274)	binding		together with: [3H]CGS21680		Ki	2.69 µM
COC(=O)C1C(OC(=O)c2ccccc2)CC2CCC1N2S(=O)(=O)C(F)(F)F (centres unmarked)	dopamine transporter	binding				Ki	0.33 µM
CNC(=O)[C@@]12C[C@@H]1[C@@H](n1cnc3c(NC(C4CC4)C4CC4)nc(Cl)nc31)[C@H](O)[C@@H]2O	ADORA1 (Homo sapiens, UniProt P30542)	binding		together with: [3H]R-PIA		Ki	0.11 ± 0.014 µM
O=C(CCc1ccc(C(F)(F)F)cc1)N[C@H]1CCOC1=O	lasR	reporter gene, agonist, lasI-lacZ reporter				EC50	10 µM
COC(=O)C1C(OC(=O)c2ccccc2)CC2CCC1N2S(=O)(=O)N=C=O (centres unmarked)	dopamine transporter	binding				Ki	0.12 µM
O=C(NCc1cc(Br)cc(Br)c1OC(=O)c1ccccc1[N+](=O)[O-])c1ccccc1Cl	lasR	reporter gene, agonist, rsaL-yfp reporter	PAO-MW1			EC50	0.014 µM
O=[N+]([O-])c1cccc(/C(Cn2nnc3ccccc32)=N\N=C\c2cc(Cl)cc(Cl)c2O)c1	MAL12 (Saccharomyces cerevisiae S288c, UniProt P53341)				inhibition	IC50	1.1 ± 0.05 µM
OC1(c2ccc(Cl)cc2)c2ccccc2C2=NCCN21 (racemic)	serotonin transporter					Ki	0.103 µM
Nc1ncnc2c1ncn2[C@@H]1O[C@H](COS(=O)(=O)NC(=O)CCC(=O)c2ccccc2C(=O)O)[C@@H](O)[C@H]1O	2-succinylbenzoate--CoA ligase (menE, Escherichia coli, UniProt P37353)	enzyme activity				IC50	0.025 µM
COc1ccc(/C=C/C(=O)NCCc2c[nH]c3ccccc23)cc1OC	Cholinesterase (BCHE, Homo sapiens, UniProt P06276)					IC50	> 100 µM
O=C1NC(=O)C(=Cc2ccc(OCc3cn(Cc4ccccc4Cl)nn3)cc2)C(=O)N1	tyrosinase	inhibitor				IC50	29.9 µM

Some of these lines once more:
SMILES	target	assay	system	setting	how to read	quantity	value
CNC(=O)[C@@]12C[C@@H]1[C@@H](n1cnc3c(NC(C4CC4)C4CC4)nc(Cl)nc31)[C@H](O)[C@@H]2O	ADORA1 (Homo sapiens, UniProt P30542)	binding		together with: [3H]R-PIA		Ki	0.11 ± 0.014 µM
